{"data": "Results collected from several papers", "RIPK3": "Receptor-interacting serine/threonine-protein kinase 3 (RIPK3, Homo sapiens, UniProt Q9Y572)", "note": "Compare with care: the assays were run in different laboratories. ± gives the spread as reported."}
{"Structure (SMILES)": "CCCc1cc2c3c(c1CCC)O[C@H](CO)[C@H](O)[C@@H]3OC2", "target": "Galectin-9, N-terminal CRD (LGALS9, Homo sapiens, UniProt O00182)", "test": "binding, competitive fluorescence polarization", "setting": "20 °C, galectin-9 N-terminal domain 1.0 µM", "Kd [µM]": "> 2000"}
{"Structure (SMILES)": "CC(C)C[C@@H](N)C(=O)N[C@H](CC(=O)O)C(=O)N[C@@H](C(=O)N[C@H](Cc1ccccc1)C(=O)N[C@H](CC(C)C)C(=O)N[C@H](Cc1ccc(O)cc1)C(=O)N[C@H](CO)C(=O)N[C@H](CCC(=O)O)C(=O)O)C(C)C", "target": "Programmed cell death 1 ligand 1 (Cd274, Mus musculus, UniProt Q9EP73)", "test": "binding, MST", "Kd [µM]": 22.9}
{"Structure (SMILES)": "CC#Cc1cc2c3c(c1C#CC)O[C@H](CO)[C@H](O)[C@@H]3OC2", "target": "Galectin-1 (LGALS1, Homo sapiens, UniProt P09382)", "test": "ligand displacement, FP", "Kd [µM]": 1100}
{"Structure (SMILES)": "CCCC[C@@H]1NC(=O)[C@H](Cc2ccc(O)cc2)NC(=O)[C@@H]2CCCN2C(=O)[C@H](CC(=O)O)NC(=O)[C@H](C)NC(=O)[C@H](Cc2ccccc2)NC(=O)[C@@H]2CSCCC(=O)N3CN(CN(C3)C(=O)CCSC[C@@H](C(=O)N[C@@H](C)C(N)=O)NC1=O)C(=O)CCSC[C@H](NC(=O)[C@H](C)NC(C)=O)C(=O)N[C@@H](CC(C)(C)C)C(=O)N1CCC[C@H]1C(=O)N[C@@H](CCC(=O)O)C(=O)N[C@H](C)C(=O)N1CCC[C@H]1C(=O)N[C@@H](Cc1ccc(O)cc1)C(=O)N2", "target": "Tumor necrosis factor receptor superfamily member 9 (Homo sapiens, UniProt Q07011)", "test": "binding, SPR", "Kd [µM]": 0.004}
{"Structure (SMILES)": "CC[C@H](C)[C@H](NC(=O)[C@H](CC(=O)O)NC(=O)[C@H](CC(=O)O)NC(=O)[C@@H]1CCCN1C(=O)[C@H](CC(=O)O)NC(=O)[C@H](CC(C)C)NC(=O)[C@H](CCSC)NC(=O)[C@H](CC(C)C)NC(=O)[C@H](CC(=O)O)NC(=O)[C@H](CC(=O)O)NC(=O)[C@H](CCSC)NC(=O)[C@H](C)NC(=O)[C@H](CCC(N)=O)NC(=O)[C@H](CC(=O)O)NC(=O)[C@@H]1CCCN1C(=O)[C@H](CC(C)C)NC(=O)[C@@H]1CCCN1C(=O)[C@H](CC(=O)O)NC(=O)[C@H](CC(C)C)NC(=O)[C@@H](NC(=O)[C@H](CC(N)=O)NC(=O)[C@H](CC(N)=O)NC(=O)[C@H](CCC(=O)O)NC(=O)[C@@H]1CCCN1C(=O)[C@H](CC(C)C)NC(=O)[C@H](CC(C)C)NC(=O)[C@H](CCCCN)NC(=O)[C@H](Cc1c[nH]c2ccccc12)NC(=O)[C@H](CC(C)C)NC(=O)[C@H](CC(=O)O)NC(=O)[C@H](CC(=O)O)NC(=O)[C@H](Cc1ccccc1)NC(=O)[C@H](CC(=O)O)NC(=O)[C@H](CCC(=O)O)NC(=O)[C@H](CCC(N)=O)NC(=O)[C@H](CC(=O)O)NC(=O)[C@H](CC(C)C)NC(=O)[C@@H]1CCCN1C(=O)[C@@H]1CCCN1C(=O)[C@H](CCC(=O)O)NC(=O)[C@@H](N)C(C)C)C(C)C)C(=O)N[C@@H](CCC(=O)O)C(=O)N[C@@H](CCC(N)=O)C(=O)N[C@@H](Cc1c[nH]c2ccccc12)C(=O)N[C@@H](Cc1ccccc1)C(=O)N[C@@H](CC(=O)O)C(=O)N[C@@H](CCC(=O)O)C(=O)N[C@@H](CC(=O)O)C(=O)O", "target": "Histone acetyltransferase p300, TAZ1 domain (EP300, Homo sapiens, UniProt Q09472)", "test": "fluorescence anisotropy", "setting": "TAZ1 domain, added: labelled p53 TAD peptide", "Kd [µM]": "0.038 ± 0.008"}
{"Structure (SMILES)": "CC(C)C[C@@H]1NC(=O)CNC(=O)[C@H]([C@@H](C)O)NC(=O)[C@@H](NC(=O)COCCOCCNC(=S)Nc2ccc3c(c2)C(=O)OC32c3ccc(O)cc3Oc3cc(O)ccc32)CCCCNC(=O)c2cc3cc(c2)NC(=O)CSC[C@H](NC(=O)[C@H](CO)NC(=O)[C@H](C(C)C)NC(=O)[C@H](Cc2c[nH]c4ccccc24)NC(=O)[C@H](CO)NC(=O)[C@H]([C@@H](C)O)NC1=O)C(=O)N[C@@H](Cc1c[nH]cn1)C(=O)N[C@@H](Cc1ccccc1)C(=O)N[C@@H](CC(C)C)C(=O)N[C@@H](CCCNC(=N)N)C(=O)N[C@@H](CO)C(=O)N[C@@H](CC(C)C)C(=O)N[C@H](C(N)=O)CSCC(=O)N3", "target": "Transcriptional enhancer factor TEF-3 (TEAD4, Homo sapiens, UniProt Q15561)", "test": "binding, FP", "Kd [µM]": 0.0701}
{"Structure (SMILES)": "CC[C@H](C)[C@H](NC(=O)[C@H](CCCCN)NC(=O)[C@H](CCCCN)NC(=O)[C@@H](NC(=O)[C@H](CCC(=O)O)NC(=O)[C@H](CCC(=O)O)NC(=O)[C@H](CCC(=O)O)NC(=O)[C@H](C)NC(=O)[C@H](CC(C)C)NC(=O)[C@H](CC(=O)O)NC(=O)[C@H](CC(C)C)NC(=O)CNC(=O)[C@H](CCCNC(=N)N)NC(=O)[C@H](CC(C)C)NC(=O)[C@H](CO)NC(=O)CNC(=O)CNC(=O)CNC(=O)CCCC[C@@H]1SC[C@@H]2NC(=O)N[C@@H]21)C(C)C)C(=O)N[C@@H](CC(C)C)C(=O)N[C@@H](CC(=O)O)C(=O)N[C@@H](CCC(=O)O)C(=O)N[C@H](C(=O)N[C@H](C(=O)N[C@@H](CCCCN)C(=O)N[C@@H](CC(=O)O)C(=O)O)C(C)C)[C@@H](C)CC", "target": "Fab B11 antibody (human)", "test": "binding, biolayer interferometry", "setting": "added: biotinylated peptide on tips", "Kd [µM]": "0.16 ± 0.004"}
{"Structure (SMILES)": "O=C(Cc1cccc(C(F)(F)F)c1)Nc1cc(Oc2cc3sc(NC(=O)C4CC4)nc3cc2Cl)ccc1F", "target": "RIPK3", "test": "binding, competition with immobilised ligand", "Kd [µM]": "> 5"}
{"Structure (SMILES)": "CC(=O)NCCCC[C@H](NC(=O)CNC(=O)[C@H](C)NC(=O)[C@H](CCCCN)NC(=O)CNC(=O)CNC(=O)[C@H](C)NC(=O)[C@@H](N)Cc1ccc(O)cc1)C(=O)N[C@@H](CC(=O)O)C(=O)N[C@@H](CO)C(=O)NCC(=O)N[C@@H](CCCCN)C(=O)N[C@@H](C)C(=O)N[C@@H](CCCCNC(C)=O)C(=O)N[C@H](C(=O)N[C@@H](CCCCN)C(=O)N[C@@H](C)C(=O)N[C@H](C(=O)N[C@@H](CO)C(=O)N[C@@H](CCCNC(=N)N)C(N)=O)C(C)C)[C@@H](C)O", "target": "Nucleosome-remodeling factor subunit BPTF, bromodomain (BPTF, Homo sapiens, UniProt Q12830)", "test": "bromodomain binding, PrOF NMR titration", "setting": "pH 7.4, 5-fluorotryptophan-labelled bromodomain, 40-50 µM", "Kd [µM]": 520}
{"Structure (SMILES)": "C[C@H](OP(=O)(O)O)[C@H]1NC(=O)CN(C)C(=O)[C@@H](C)NC(=O)[C@H](CCC(=O)N[C@@H](CCCCN)C(N)=O)NC(=O)[C@H](Cc2ccc(O)cc2)NC(=O)[C@H](Cc2ccc3ccccc3c2)NC(=O)[C@@H]2CCCCN2C1=O", "target": "Peptidyl-prolyl cis-trans isomerase NIMA-interacting 1 (PIN1, Homo sapiens, UniProt Q13526, S16A/Y23A)", "test": "binding, fluorescence anisotropy", "Kd [µM]": "0.258 ± 0.066"}
{"Structure (SMILES)": "CC[C@H](C)[C@H](NC(=O)[C@H](CCCCN)NC(=O)[C@H](CCCCN)NC(=O)[C@@H](NC(=O)[C@H](CCC(=O)O)NC(=O)[C@H](CCC(=O)O)NC(=O)[C@H](CCC(=O)O)NC(=O)[C@H](CO)NC(=O)[C@H](CC(C)C)NC(=O)[C@H](C)NC(=O)[C@H](CC(C)C)NC(=O)CNC(=O)[C@H](CCCNC(=N)N)NC(=O)[C@H](CC(C)C)NC(=O)[C@H](CO)NC(=O)CNC(=O)CNC(=O)CNC(=O)CCCC[C@@H]1SC[C@@H]2NC(=O)N[C@@H]21)C(C)C)C(=O)N[C@@H](CC(C)C)C(=O)N[C@@H](CC(=O)O)C(=O)N[C@@H](CCC(=O)O)C(=O)N[C@H](C(=O)N[C@H](C(=O)N[C@@H](CCCCN)C(=O)N[C@@H](CC(=O)O)C(=O)O)C(C)C)[C@@H](C)CC", "target": "Fab B11 antibody (human)", "test": "binding, biolayer interferometry", "setting": "added: biotinylated peptide on tips", "Kd [µM]": "0.094 ± 0.002"}
{"Structure (SMILES)": "COc1cc2nc(NC(=O)C3CC3)sc2cc1Oc1ccc(F)c(NC(=O)Cc2cccc(C(F)(F)F)c2)c1", "target": "RIPK3", "test": "binding, competition with immobilised ligand", "Kd [µM]": "> 5"}
